Experimental data of several laboratories.
Every numbered part comes from another study and shows a few of its results, in no order. Changes are numbered by the printed parent chain.

Block 1 — technique: protein binding microarray; molecule type: double-stranded DNA, one strand shown; medium: in vitro; tested at: not given; relative to: not given; reading: higher = stronger binding
Target: Histone acetyltransferase KAT6A, both winged helices, GST fusion (KAT6A, Homo sapiens, UniProt Q92794, residues 1-181)
Notes: 8-mer, flanks averaged, mean of 2 arrays, mostly near background
Construct (chain): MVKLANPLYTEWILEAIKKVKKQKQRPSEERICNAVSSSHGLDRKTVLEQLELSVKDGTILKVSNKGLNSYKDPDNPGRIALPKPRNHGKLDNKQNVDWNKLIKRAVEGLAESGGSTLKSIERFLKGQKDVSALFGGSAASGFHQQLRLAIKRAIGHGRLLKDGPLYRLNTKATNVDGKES
| Oligonucleotide | E-score |
| --- | --- |
| CCACGATA | -0.265 |
| CAGTATAA | -0.13 |
| GGATGGAA | -0.0935 |
| CCGCTCTA | 0.176 |
| GGCTAAAC | 0.0887 |
| GGAGCAGA | -0.0563 |
| TAATGGTA | -0.0918 |
| GAATGCAA | -0.0775 |

Block 2 — technique: DNA-protein interaction ELISA; molecule type: double-stranded DNA, one strand shown; medium: in vitro, bacterial lysate; tested at: not given; notes: whole dsDNA probe, crude lysate protein; relative to: highest signal in screen; reading: higher = stronger binding
Target: Probable WRKY transcription factor 50, DNA-binding domain (WRKY50, Arabidopsis thaliana, UniProt Q8VWQ5, residues 99-173)
Residues (chain): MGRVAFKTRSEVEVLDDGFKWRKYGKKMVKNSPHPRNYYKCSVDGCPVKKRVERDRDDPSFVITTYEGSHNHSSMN
| Oligonucleotide | relative absorbance |
| --- | --- |
| AAAAAATTAGTCCTGATTCAATCTTCAAAA | 48.8 % of maximum |
| AAAAAATGGGGCTCTGGCCCACCGTAAAAA | 22.3 % of maximum |
| AAAAAAGGACGTCTTCGGTATGAGTGAAAA | 43.6 % of maximum |
| AAAAAATTCTTACTTTTGTCTTTACTAAAA | 62.3 % of maximum |
| AAAAAATTTGCGCTTCATCCTGCCCCAAAA | 29.9 % of maximum |
| AAAAAAGGCCTTCGCTCGTGTTTACGAAAA | 11.6 % of maximum |
| AAAAAACTTGCTCCTCCGTTTTACTCAAAA | 20.7 % of maximum |
| AAAAAATGTGCCCGTGTGTGCTCGCGAAAA | 13.8 % of maximum |

Further values, each from its own experiment — tested at: not given
FOXP2 N-truncated, polyQ removed: Forkhead box protein P2, N-truncated, polyQ removed (FOXP2, Homo sapiens, UniProt O15409, residues 214-715)
Sequence of UniProt O15409 (214-715, unmodified, looked up): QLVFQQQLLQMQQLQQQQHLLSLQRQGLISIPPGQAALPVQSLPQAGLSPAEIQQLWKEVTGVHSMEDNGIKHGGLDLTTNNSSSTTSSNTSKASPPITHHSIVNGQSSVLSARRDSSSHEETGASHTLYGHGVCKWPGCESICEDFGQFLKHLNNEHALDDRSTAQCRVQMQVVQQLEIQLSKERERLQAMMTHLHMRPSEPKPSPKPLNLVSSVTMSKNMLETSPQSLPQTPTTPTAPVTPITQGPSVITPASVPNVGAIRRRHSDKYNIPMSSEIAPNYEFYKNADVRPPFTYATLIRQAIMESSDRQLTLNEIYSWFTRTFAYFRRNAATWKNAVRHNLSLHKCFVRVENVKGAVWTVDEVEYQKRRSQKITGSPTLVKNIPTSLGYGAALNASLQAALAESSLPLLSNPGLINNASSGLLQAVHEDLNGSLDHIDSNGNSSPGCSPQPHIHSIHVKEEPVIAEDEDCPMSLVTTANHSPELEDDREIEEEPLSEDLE
P1: PafA, mature enzyme, eGFP fusion (Elizabethkingia meningoseptica, UniProt Q9KJX5); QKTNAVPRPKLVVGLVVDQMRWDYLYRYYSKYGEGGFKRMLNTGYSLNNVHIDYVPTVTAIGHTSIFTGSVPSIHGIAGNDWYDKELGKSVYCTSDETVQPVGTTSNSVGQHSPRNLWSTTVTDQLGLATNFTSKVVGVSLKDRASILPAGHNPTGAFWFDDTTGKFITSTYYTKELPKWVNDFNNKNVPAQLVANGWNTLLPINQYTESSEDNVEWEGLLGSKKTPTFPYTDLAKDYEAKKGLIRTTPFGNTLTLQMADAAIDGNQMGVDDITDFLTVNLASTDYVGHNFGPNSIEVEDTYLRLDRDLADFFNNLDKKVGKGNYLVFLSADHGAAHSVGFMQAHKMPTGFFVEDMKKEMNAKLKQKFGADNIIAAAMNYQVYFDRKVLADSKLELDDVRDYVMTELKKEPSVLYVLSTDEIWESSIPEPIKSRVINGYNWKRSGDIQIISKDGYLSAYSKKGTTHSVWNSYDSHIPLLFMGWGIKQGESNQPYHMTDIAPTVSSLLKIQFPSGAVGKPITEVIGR
| Molecule | target | assay | test system | setting | how to read | quantity | result |
| --- | --- | --- | --- | --- | --- | --- | --- |
| CGCCTGTTACGGCATCAGGGCTTTGGTTTGGGATGGCTGCGTGTTTACCAATTGTTCCGGCGGTATGAC | FOXP2 N-truncated, polyQ removed | MITOMI | double-stranded DNA, one strand shown, in vitro | 69-bp whole dsDNA, apparent Ka, titration fit | relative to: unmutated reference site, higher = stronger binding | relative association constant | 0.343 fold |
| P1 G517A | inorganic phosphate, free oxyanion | microfluidic competitive inhibition | in vitro, cell-free expressed | derived from inhibition constants, unchanged parent 615000 nM | lower = stronger binding | phosphate dissociation constant | 415 µM |
| CGCCTGTTACGGCATCAGGGCTTTGGTTTGGGATGGCTGCTTGCTTACCAATTGTTCCGGCGGTATGAC | FOXP2 N-truncated, polyQ removed | MITOMI | double-stranded DNA, one strand shown, in vitro | 69-bp whole dsDNA, apparent Ka, titration fit | relative to: unmutated reference site, higher = stronger binding | relative association constant | 0.0492 fold |

For quick reference, copied from above (further values, each from its own experiment):
| Molecule | target | assay | test system | setting | how to read | quantity | result |
| --- | --- | --- | --- | --- | --- | --- | --- |
| CGCCTGTTACGGCATCAGGGCTTTGGTTTGGGATGGCTGCTTGCTTACCAATTGTTCCGGCGGTATGAC | FOXP2 N-truncated, polyQ removed | MITOMI | double-stranded DNA, one strand shown, in vitro | 69-bp whole dsDNA, apparent Ka, titration fit | relative to: unmutated reference site, higher = stronger binding | relative association constant | 0.0492 fold |
| CGCCTGTTACGGCATCAGGGCTTTGGTTTGGGATGGCTGCGTGTTTACCAATTGTTCCGGCGGTATGAC | FOXP2 N-truncated, polyQ removed | MITOMI | double-stranded DNA, one strand shown, in vitro | 69-bp whole dsDNA, apparent Ka, titration fit | relative to: unmutated reference site, higher = stronger binding | relative association constant | 0.343 fold |
| P1 G517A | inorganic phosphate, free oxyanion | microfluidic competitive inhibition | in vitro, cell-free expressed | derived from inhibition constants, unchanged parent 615000 nM | lower = stronger binding | phosphate dissociation constant | 415 µM |
